{"data": "Experimental data gathered from unrelated publications", "CA9": "Carbonic anhydrase 9 (CA9, Homo sapiens, UniProt Q16790)", "HDAC2": "Histone deacetylase 2 (HDAC2, Homo sapiens, UniProt Q92769)", "BIRC2 BIR3 domain": "Baculoviral IAP repeat-containing protein 2, BIR3 domain (BIRC2, Homo sapiens, UniProt Q13490)", "NOS3": "Nitric oxide synthase 3 (NOS3, Bos taurus, UniProt P29473)", "Proline--tRNA ligase": "Proline--tRNA ligase (Plasmodium falciparum, UniProt Q8I5R7)", "GRPR": "Gastrin-releasing peptide receptor (GRPR, Homo sapiens, UniProt P30550)", "note": "Compare with care: the assays were run in different laboratories."}
{"Structure (SMILES)": "CN(C)CCN(Cc1ccncc1)Cc1c(Cl)cccc1Cl", "target": "SLC6A2 (Homo sapiens, UniProt P23975)", "assay": "binding", "how to read": "reference: Ki SERT over NET", "selectivity ratio": "< 2 fold"}
{"Structure (SMILES)": "NS(=O)(=O)c1ccc(Nc2nc3nccc(-c4ccc5ccccc5c4)n3n2)cc1", "target": "CA9", "assay": "inhibitor", "how to read": "reference: Ki hCA IV over Ki CA9", "selectivity ratio": 142}
{"Structure (SMILES)": "O=C(CCCCCCNCc1ccc2c(c1)OCO2)NO", "target": "HDAC2", "assay": "deacetylase activity, inhibitor, fluorescence", "setting": "added: Boc-Lys(Ac)-AMC substrate", "how to read": "reference: IC50 HDAC2 over IC50 HDAC1", "selectivity ratio": 6.5}
{"Structure (SMILES)": "CN[C@@H](C)C(=O)N[C@H]1CN(C(=O)Cc2ccccc2)CC[C@H]2CC[C@@H](C(=O)NCc3ccc(F)cc3)N2C1=O", "target": "BIRC2 BIR3 domain", "assay": "fluorescence polarization", "how to read": "reference: Ki XIAP over Ki cIAP1", "selectivity ratio": 218}
{"Structure (SMILES)": "O[C@@H]1[C@H](O)[C@@H](CNC(=S)Nc2ccccc2)N2CCC[C@@H](O)[C@H]12", "target": "Alpha-mannosidase 2 (Homo sapiens, UniProt Q16706)", "assay": "inhibitor", "setting": "added: fluorogenic mannoside substrate", "how to read": "reference: lysosomal over Golgi mannosidase Ki", "selectivity ratio": 3.1}
{"Structure (SMILES)": "CN[C@@H](C)C(=O)N[C@H]1CN(C(=O)Cc2ccccc2)CC[C@H]2CC[C@@H](C(=O)NCc3ccccc3F)N2C1=O", "target": "BIRC2 BIR3 domain", "assay": "fluorescence polarization", "how to read": "reference: Ki XIAP over Ki cIAP1", "selectivity ratio": 56}
{"Structure (SMILES)": "Cc1cc(N)nc(C[C@@H]2CNC[C@@H]2OCCCCOc2cc(F)cc(Cl)c2)c1", "target": "NOS3", "assay": "enzyme activity, inhibitor", "how to read": "reference: Ki NOS3 over Ki nNOS", "selectivity ratio": 37}
{"Structure (SMILES)": "Cc1cc(CN(CCCCCCC(=O)NO)Cc2ccc(F)c(C)c2)ccc1F", "target": "HDAC2", "assay": "deacetylase activity, inhibitor, fluorescence", "setting": "added: Boc-Lys(Ac)-AMC substrate", "how to read": "reference: IC50 HDAC2 over IC50 HDAC1", "selectivity ratio": 4.4}
{"Structure (SMILES)": "Cc1cc(N)nc(C[C@@H]2CNC[C@@H]2OCCCCCc2cccc(N)n2)c1", "target": "NOS3", "assay": "enzyme activity, inhibitor", "how to read": "reference: Ki NOS3 over Ki nNOS", "selectivity ratio": 1120}
{"Structure (SMILES)": "N[C@@H](CCC(=O)N[C@@H](CS[Se]Cc1ccc(-c2cccc(C(O)c3ccc(Cl)c(Cl)c3)c2)cc1)C(=O)NCC(=O)O)C(=O)O (some centres unmarked)", "target": "Cathepsin B (CTSB, Homo sapiens, UniProt P07858)", "assay": "enzyme activity, inhibitor", "setting": "added: glutathione 1 mM", "how to read": "reference: IC50 cathepsin B over STEP", "selectivity ratio": "> 100"}
{"Structure (SMILES)": "CN[C@@H](C)C(=O)N[C@H]1CN(C(=O)Cc2ccccc2)CC[C@H]2CC[C@@H](C(=O)NCc3cccc(Cl)c3)N2C1=O", "target": "BIRC2 BIR3 domain", "assay": "fluorescence polarization", "how to read": "reference: Ki XIAP over Ki cIAP1", "selectivity ratio": 68}
{"Structure (SMILES)": "Cc1cc(N2CCC(CO)(C3CC3)C2=O)cc(C(=O)NCc2cc(F)cc(-c3cnn(C)c3)c2)n1 (centres unmarked)", "target": "Proline--tRNA ligase", "assay": "aminoacylation activity, inhibitor, malachite green", "how to read": "reference: human over P. falciparum IC50", "selectivity ratio": 19}
{"Structure (SMILES)": "CCc1ccc(CNC(=O)[C@@H]2CC[C@@H]3CCN(C(=O)Cc4ccccc4)C[C@H](NC(=O)[C@H](C)NC)C(=O)N32)cc1", "target": "BIRC2 BIR3 domain", "assay": "fluorescence polarization", "how to read": "reference: Ki XIAP over Ki cIAP1", "selectivity ratio": 155}
{"Structure (SMILES)": "COc1ccc(CNCCCCCCC(=O)NO)cc1OC", "target": "HDAC2", "assay": "deacetylase activity, inhibitor, fluorescence", "setting": "added: Boc-Lys(Ac)-AMC substrate", "how to read": "reference: IC50 HDAC2 over IC50 HDAC1", "selectivity ratio": 8.6}
{"Structure (SMILES)": "O=C(c1ccccc1)c1cc(O)c(-c2cc(Cl)cc(Cl)c2)c(O)c1", "target": "CNR2 (Homo sapiens, UniProt P34972)", "how to read": "reference: Ki CB1 over Ki CB2", "selectivity ratio": 39.4}
{"Structure (SMILES)": "CN[C@@H](C)C(=O)N[C@H]1CN(C(=O)Cc2ccccc2)CC[C@H]2CC[C@@H](C(=O)NCc3ccc(C)cc3)N2C1=O", "target": "BIRC2 BIR3 domain", "assay": "fluorescence polarization", "how to read": "reference: Ki XIAP over Ki cIAP1", "selectivity ratio": 613}
{"Structure (SMILES)": "COc1cncc(-c2cc(F)cc(CNC(=O)c3cc(N4CC[C@@](C#N)(C5CC5)C4=O)cc(C)n3)c2)c1", "target": "Proline--tRNA ligase", "assay": "aminoacylation activity, inhibitor, malachite green", "how to read": "reference: human over P. falciparum IC50", "selectivity ratio": 10.6}
{"Structure (SMILES)": "COc1cc(-c2ccnc3nc(Nc4ccc(S(N)(=O)=O)cc4)nn23)cc(OC)c1OC", "target": "CA9", "assay": "inhibitor", "how to read": "reference: Ki hCA II over Ki CA9", "selectivity ratio": 2.3}
{"Structure (SMILES)": "CSCC[C@H](NC(=O)[C@H](CC(C)C)NC(=O)[C@H](Cc1c[nH]cn1)NC(=O)CNC(=O)[C@@H](NC(=O)[C@H](C)NC(=O)[C@H](Cc1c[nH]c2ccccc12)NC(=O)[C@H](Cc1c[nH]cn1)NC(=O)[C@H](CC(N)=O)NC(=O)CN)C(C)C)C(N)=O", "target": "GRPR", "assay": "binding", "system": "HuTu80 and BALB/3T3 hGRPR", "how to read": "reference: GRPR over NMBR", "selectivity ratio": "> 200 fold"}
{"Structure (SMILES)": "CN(C)CCNC(=O)c1cccc2c(NCCCCc3c(N)nc(N)nc3N)c3ccccc3nc12", "target": "(CCUG)6 RNA", "assay": "binding, ITC", "how to read": "reference: Kd RNA A over Kd (CCUG)6", "selectivity ratio": 1.4}
{"Structure (SMILES)": "CN[C@@H](C)C(=O)N[C@H]1CN(C(=O)Cc2ccccc2)CC[C@H]2CC[C@@H](C(=O)NCc3ccccc3Cl)N2C1=O", "target": "BIRC2 BIR3 domain", "assay": "fluorescence polarization", "how to read": "reference: Ki XIAP over Ki cIAP1", "selectivity ratio": 70}
{"Structure (SMILES)": "Cc1cc(N)nc(C[C@@H]2CNC[C@@H]2OCCCCCc2cc(F)cc(Cl)c2)c1", "target": "NOS3", "assay": "enzyme activity, inhibitor", "how to read": "reference: Ki NOS3 over Ki nNOS", "selectivity ratio": 155}
{"Structure (SMILES)": "CC(C)C[C@@H](CN[C@@H](Cc1ccc(Cl)cc1)C(N)=O)NC(=O)[C@H](Cc1c[nH]cn1)NC(=O)CNC(=O)[C@@H](NC(=O)[C@H](C)NC(=O)[C@H](Cc1c[nH]c2ccccc12)NC(=O)[C@H](CCC(N)=O)NC(=O)[C@H](N)Cc1ccccc1)C(C)C", "target": "GRPR", "assay": "binding, radioligand binding", "system": "transfected BALB/3T3", "how to read": "reference: GRPR over NMBR affinity", "selectivity ratio": "> 7400 fold"}
{"Structure (SMILES)": "O=C(CCCCCCN(Cc1ccc([N+](=O)[O-])cc1)Cc1ccc([N+](=O)[O-])cc1)NO", "target": "HDAC2", "assay": "deacetylase activity, inhibitor, fluorescence", "setting": "added: Boc-Lys(Ac)-AMC substrate", "how to read": "reference: IC50 HDAC2 over IC50 HDAC1", "selectivity ratio": 2}
{"Structure (SMILES)": "CN[C@@H](C)C(=O)N[C@H]1CN(C(=O)Cc2ccccc2)CC[C@H]2CC[C@@H](C(=O)NCc3ccc([N+](=O)[O-])cc3)N2C1=O", "target": "BIRC2 BIR3 domain", "assay": "fluorescence polarization", "how to read": "reference: Ki XIAP over Ki cIAP1", "selectivity ratio": 1150}
{"Structure (SMILES)": "Cc1cc(N2CC[C@](C#N)(C3(C)CC3)C2=O)cc(C(=O)NCc2cc(F)cc(-c3cnn(C)c3)c2)n1", "target": "Proline--tRNA ligase", "assay": "binding, microscale thermophoresis", "how to read": "reference: human over P. falciparum Kd", "selectivity ratio": 3.8}
